Measurements collected from several papers.
Protocols differ between the studies behind these lines. ± gives the spread as reported. Values after ≈ are worked out from the molar mass of the structure shown.
Spike glycoprotein: Spike glycoprotein (Severe acute respiratory syndrome coronavirus 2, UniProt P0DTC2)
OPRK1: Kappa-type opioid receptor (OPRK1, Homo sapiens, UniProt P41145)
Sequence of UniProt P41145 (whole entry, looked up): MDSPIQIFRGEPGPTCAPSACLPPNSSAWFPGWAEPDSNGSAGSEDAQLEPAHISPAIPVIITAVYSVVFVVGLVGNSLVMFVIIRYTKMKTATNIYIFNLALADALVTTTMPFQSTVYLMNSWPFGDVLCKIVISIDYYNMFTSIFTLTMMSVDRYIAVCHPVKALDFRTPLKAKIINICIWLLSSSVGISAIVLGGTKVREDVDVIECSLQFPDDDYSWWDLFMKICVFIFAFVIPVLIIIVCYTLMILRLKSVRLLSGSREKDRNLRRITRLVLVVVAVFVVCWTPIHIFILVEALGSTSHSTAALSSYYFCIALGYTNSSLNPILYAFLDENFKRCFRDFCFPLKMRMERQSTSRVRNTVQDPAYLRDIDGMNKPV
Spike glycoprotein RBD: Spike glycoprotein, RBD (Severe acute respiratory syndrome coronavirus 2, UniProt P0DTC2)

Structure (SMILES) | target or system | assay | test system | conditions | measurement | result
CC[C@H](C)[C@H](NC(=O)[C@H](CCC(=O)O)NC(=O)[C@H](CC(=O)O)NC(=O)[C@H](CO)NC(=O)[C@@H](NC(=O)[C@H](CCCNC(=N)N)NC(=O)[C@H](CCSC)NC(=O)[C@H](CO)NC(=O)[C@H](C)NC(=O)[C@H](CCC(=O)O)NC(=O)C(C)(C)NC(=O)[C@H](CC(=O)O)NC(=O)[C@@H](C)NC(=O)[C@H](CC(C)C)NC(=O)[C@H](CCC(=O)O)NC(=O)[C@H](CC(=O)O)NC(=O)[C@H](CC(C)C)NC(=O)[C@H](CC(C)C)NC(=O)[C@H](CCCNC(=N)N)NC(=O)[C@H](CCSC)NC(=O)[C@H](CCC(=O)O)NC(=O)[C@H](CCC(=O)O)NC(=O)[C@H](Cc1ccc(O)cc1)NC(=O)[C@@H](NC(=O)[C@H](CCCCN)NC(=O)[C@H](CCC(N)=O)NC(=O)[C@H](CC(C)C)NC(=O)[C@@H](NC(=O)[C@H](Cc1c[nH]c2ccccc12)NC(=O)[C@H](CCC(=O)O)NC(=O)[C@H](CCCCN)NC(=O)[C@@H](N)CC(=O)O)[C@@H](C)CC)[C@@H](C)CC)C(C)C)C(=O)N[C@@H](Cc1ccc(O)cc1)C(=O)N[C@@H](CCC(=O)O)C(=O)N[C@@H](Cc1ccccc1)C(=O)N[C@@H](CCSC)C(=O)N[C@@H](CCCCN)C(=O)N[C@@H](CCCCN)C(N)=O | Spike glycoprotein | binding, SPR |  |  | Kd | 0.00047 µM
CCCCCCCCCCCCCCCC(=O)N[C@@H](CCC(=O)NCCOCCOCCC(=O)NCCOCCOCCC(=O)NCCCC[C@H](NC(=O)[C@H](CC(=O)O)NC(=O)[C@H](CC(C)C)NC(=O)[C@H](Cc1ccc(O)cc1)NC(=O)[C@H](CCCCN)NC(=O)[C@H](CO)NC(=O)[C@H](Cc1ccc(O)cc1)NC(=O)[C@H](CC(=O)O)NC(=O)[C@H](CO)NC(=O)[C@@H](NC(=O)[C@H](Cc1ccccc1)NC(=O)[C@@H](NC(=O)CNC(=O)[C@H](CCC(N)=O)NC(=O)[C@@H](CO)NC(=O)[C@@H](N)Cc1c[nH]cn1)[C@@H](C)O)[C@@H](C)O)C(=O)N[C@@H](CCCNC(=N)N)C(=O)N[C@@H](CCCNC(=N)N)C(=O)N[C@@H](C)C(=O)N[C@@H](CCC(N)=O)C(=O)N[C@@H](CC(=O)O)C(=O)N[C@@H](Cc1ccccc1)C(=O)N[C@H](C(=O)N[C@@H](CCC(N)=O)C(=O)N[C@@H](Cc1c[nH]c2ccccc12)C(=O)N[C@@H](CC(C)C)C(=O)N[C@@H](CC(C)C)C(=O)N[C@@H](CC(N)=O)C(=O)N[C@H](C(=O)NCC(=O)NCC(=O)N1CCC[C@H]1C(=O)N[C@@H](CO)C(=O)N[C@@H](CO)C(=O)NCC(=O)N[C@@H](C)C(=O)N1CCC[C@H]1C(=O)N1CCC[C@H]1C(=O)N1CCC[C@H]1C(=O)N[C@@H](CO)C(N)=O)[C@@H](C)O)C(C)C)C(=O)O |  | measured: CK | Sprague-Dawley rat, female | subcutaneous, 20 µg/kg once daily, 14 days | serum enzyme activity | 368 ± 169 U/L
CC(C)C[C@H](NC(=O)[C@H](CO[C@@H]1O[C@H](CO)[C@@H](O[C@@H]2O[C@H](CO)[C@H](O)[C@H](O)[C@H]2O)[C@H](O)[C@H]1O)NC(=O)[C@H](CCCCN)NC(=O)[C@H](CC(C)C)NC(=O)C(C)(C)NC(=O)[C@H](CCCCN)NC(=O)[C@H](CCC(=O)O)NC(=O)[C@H](C)NC(=O)[C@H](CC(C)C)NC(=O)[C@H](CC(N)=O)NC(=O)[C@@H]1CCCN1C(=O)[C@H](CC(C)C)NC(=O)[C@H](Cc1ccccc1)NC(=O)CNC(=O)[C@H](NC(=O)[C@@H](N)Cc1ccc(O)cc1)[C@H](C)O)C(N)=O | OPRK1 | ligand displacement, radioligand |  | pH 7.5, cell membranes | Ki | 0.0057 µM
CC(C)C[C@H](NC(=O)[C@H](Cc1c[nH]c2ccccc12)NC(=O)[C@H](CCCNC(=N)N)NC(=O)[C@H]1CCC[C@@H]1NC(=O)[C@H](CCC(=O)O)NC(=O)[C@H](CC(=O)O)NC(=O)[C@H](CC(=O)O)NC(=O)[C@@H](N)CCCNC(=N)N)C(=O)N[C@H]1CCC[C@@H]1C(=O)N[C@H](C(=O)N[C@@H](CC(=O)O)C(=O)N[C@H]1CCC[C@@H]1C(=O)N[C@H](C(=O)N[C@@H](Cc1ccc(O)cc1)C(=O)N[C@@H](CCC(=O)O)C(=O)N[C@H]1CCC[C@@H]1C(=O)N[C@@H](Cc1c[nH]c2ccccc12)C(=O)N[C@@H](Cc1c[nH]cn1)C(N)=O)C(C)C)[C@@H](C)O | Spike glycoprotein RBD |  |  |  | Kd | 1.1 µM
CNC(C)C1C(O)CC2(C)C3CCC4C(C)(C)C(NC)CCC45CC35CCC12C (stereo not drawn) | Spike glycoprotein | binding, biolayer interferometry |  |  | Kd | 38.7 µM
CC[C@H](C)[C@H](NC(=O)[C@H](CC(C)C)NC(=O)[C@H](CC(=O)O)NC(=O)[C@H](CO)NC(=O)[C@@H](NC(=O)[C@H](CCCNC(=N)N)NC(=O)[C@H](CCSC)NC(=O)[C@H](CO)NC(=O)[C@H](C)NC(=O)[C@H](CCC(=O)O)NC(=O)[C@H](C)NC(=O)[C@H](Cc1c[nH]cn1)NC(=O)CNC(=O)[C@H](CC(C)C)NC(=O)[C@H](CCC(=O)O)NC(=O)[C@H](CC(=O)O)NC(=O)[C@H](CC(C)C)NC(=O)[C@H](CC(C)C)NC(=O)[C@H](CCCNC(=N)N)NC(=O)[C@H](CCSC)NC(=O)[C@@H](NC(=O)[C@H](CCC(=O)O)NC(=O)[C@H](Cc1ccc(O)cc1)NC(=O)[C@@H](NC(=O)[C@H](CCCCN)NC(=O)[C@H](CCC(N)=O)NC(=O)[C@H](CC(C)C)NC(C)=O)[C@@H](C)CC)[C@@H](C)CC)C(C)C)C(=O)N[C@@H](Cc1ccc(O)cc1)C(=O)N[C@@H](CCC(=O)O)C(=O)N[C@@H](Cc1ccccc1)C(=O)N[C@@H](CCSC)C(=O)N[C@@H](CCCCN)C(=O)N[C@@H](CCCCN)C(=O)NCC(=O)N[C@@H](CC(=O)O)C(=O)N[C@@H](CCC(=O)O)C(=O)N[C@@H](CCCNC(=N)N)C(=O)N[C@@H](CC(C)C)C(=O)N[C@@H](CC(C)C)C(=O)N[C@@H](CCC(=O)O)C(=O)N[C@@H](CCC(=O)O)C(=O)N[C@@H](C)C(=O)N[C@@H](CCC(=O)O)C(=O)N[C@@H](CCCNC(=N)N)C(=O)N[C@@H](CC(C)C)C(=O)N[C@@H](CC(C)C)C(=O)N[C@@H](CCC(=O)O)C(=O)N[C@@H](CCC(=O)O)C(=O)N[C@H](C(N)=O)C(C)C | Spike glycoprotein | binding, BLI |  |  | Kd | 0.00611 µM
CC(C)C[C@H](NC(=O)[C@H](CO[C@@H]1O[C@H](CO)[C@@H](O)[C@H](O)[C@H]1O)NC(=O)[C@H](CCCCN)NC(=O)[C@H](CC(C)C)NC(=O)[C@H](C)NC(=O)[C@H](CCCCN)NC(=O)[C@H](CCC(=O)O)NC(=O)C(C)(C)NC(=O)[C@H](CC(C)C)NC(=O)[C@H](CC(N)=O)NC(=O)[C@@H]1CCCN1C(=O)[C@H](CC(C)C)NC(=O)[C@H](Cc1ccccc1)NC(=O)CNC(=O)[C@H](NC(=O)[C@@H](N)Cc1ccc(O)cc1)[C@H](C)O)C(N)=O | OPRK1 | ligand displacement, radioligand |  | pH 7.5, cell membranes | Ki | 0.012 µM
CC1COC2(OC3CC4C5CC(OC6OC(C)C(O)C(OC7OC(C)C(O)C(O)C7O)C6O)C6CC(O)CCC6(C)C5CCC4(C)C3C2C)C(O)C1 (stereo not drawn) | Spike glycoprotein, S1 subunit (Severe acute respiratory syndrome coronavirus 2, UniProt P0DTC2) | binding |  |  | Kd | 3.76 µM
CCSC[C@H](NC(=O)[C@H](CCCC(=O)NCCN(CC(=O)NCCN(CC(=O)NCCN(CC(=O)NCCN(CC(=O)N[C@@H](CCCNC(=N)N)C(N)=O)C(=O)Cn1cnc2c(=O)[nH]c(N)nc21)C(=O)Cn1ccc(N)nc1=O)C(=O)Cn1ccc(N)nc1=O)C(=O)Cn1cnc2c(=O)[nH]c(N)nc21)NC(=O)[C@H](CCC(=O)O)NC(=O)[C@H](Cc1ccc(O)cc1)NC(=O)[C@@H](NC(=O)[C@H](CCCCN)NC(=O)[C@H](CCC(N)=O)NC(=O)[C@H](CC1CCC1)NC(=O)[C@@H](NC(=O)[C@H](Cc1c[nH]c2ccccc12)NC(=O)[C@H](CCC(=O)O)NC(=O)[C@H](CCCCN)NC(=O)[C@H](CC(=O)O)NC(C)=O)[C@@H](C)CC)[C@@H](C)CC)C(=O)N[C@@H](CCCNC(=N)N)C(=O)N[C@@H](CC(C)C)C(=O)N[C@@H](CC(C)C)C(=O)N[C@@H](CC(=O)O)C(=O)N[C@@H](CCC(=O)O)C(=O)N[C@@H](CC(C)C)C(=O)NCC(=O)N[C@@H](Cc1c[nH]cn1)C(=O)N[C@@H](C)C(=O)N[C@@H](CCC(=O)O)C(=O)N[C@@H](C)C(=O)N[C@@H](CO)C(=O)N[C@@H](CCSC)C(=O)N[C@@H](CCCNC(=N)N)C(=O)N[C@H](C(=O)N[C@@H](CO)C(=O)N[C@@H](CC(=O)O)C(=O)N[C@@H](CCCCNC(=O)CN(CCNC(=O)CN(CCNC(=O)CN(CCNC(=O)CN(CCNC(=O)[C@H](CCCNC(=N)N)NC(C)=O)C(=O)Cn1ccc(N)nc1=O)C(=O)Cn1cnc2c(=O)[nH]c(N)nc21)C(=O)Cn1cnc2c(=O)[nH]c(N)nc21)C(=O)Cn1ccc(N)nc1=O)C(=O)N[C@H](C(=O)N[C@@H](Cc1ccc(O)cc1)C(=O)N[C@@H](CCC(=O)O)C(=O)N[C@@H](Cc1ccccc1)C(=O)N[C@@H](CCSC)C(=O)N[C@@H](CCCCN)C(=O)N[C@@H](CCCCN)C(N)=O)[C@@H](C)CC)C(C)C | Spike glycoprotein | binding, SPR |  |  | Kd | 8.1e-05 µM
CC[C@H](C)[C@H](NC(=O)[C@H](CCC(=O)O)NC(=O)[C@H](CCC(N)=O)NC(=O)[C@H](CC(C)C)NC(=O)[C@@H]1CCCN1C(=O)[C@H](Cc1ccc(O)cc1)NC(=O)[C@@H](NC(=O)[C@H](CCC(N)=O)NC(=O)[C@H](C)NC(=O)[C@@H](NC(=O)[C@@H](NC(=O)[C@H](CO)NC(=O)[C@H](CS)NC(=O)[C@H](CCC(=O)O)NC(=O)[C@H](CCCCN)NC(=O)[C@H](CC(C)C)NC(=O)[C@H](Cc1ccccc1)NC(=O)[C@H](C)NC(=O)[C@H](CO)NC(=O)[C@H](Cc1c[nH]c2ccccc12)NC(=O)[C@H](CCCCN)NC(=O)[C@@H](N)CC(=O)O)[C@@H](C)O)[C@@H](C)CC)[C@@H](C)CC)C(=O)O | Spike glycoprotein RBD |  |  | pH 7.4 | Kd | > 1000 µM
O=CC(O)C(O)C(O)C(O)COc1cc(O)c2c(=O)c(OCC(O)C(O)C(O)C(O)C=O)c(-c3ccc(O)c(O)c3)oc2c1 (stereo not drawn) | Spike glycoprotein | binding |  |  | Kd | 0.0947 µM
CC[C@H](C)[C@H](NC(=O)[C@H](CCCCN)NC(=O)[C@H](CCCCN)NC(=O)[C@H](CC(C)C)NC(=O)[C@H](Cc1c[nH]c2ccccc12)NC(=O)CN)C(=O)NCC(=O)N[C@@H](CCCCN)C(=O)N[C@@H](CCCCN)C(=O)N[C@H](C(=O)N[C@@H](CCC(=O)O)C(=O)N[C@@H](CCCNC(=N)N)C(=O)N[C@H](C(=O)NCC(=O)N[C@@H](CCC(N)=O)C(=O)N[C@@H](Cc1c[nH]cn1)C(=O)N[C@H](C(=O)N[C@@H](CCCNC(=N)N)C(=O)N[C@@H](CC(=O)O)C(=O)N[C@@H](C)C(=O)N[C@H](C(=O)N[C@H](C(=O)N[C@@H](CCC(N)=O)C(=O)N[C@H](C(=O)N[C@H](C(=O)NCC(=O)N[C@H](C(=O)N[C@@H](C)C(=O)N[C@@H](CCC(N)=O)C(=O)N[C@@H](CCC(N)=O)C(=O)N[C@@H](C)C(=O)N[C@@H](C)C(=O)N[C@@H](CC(N)=O)C(=O)N[C@H](C(=O)N[C@@H](C)C(=O)N[C@@H](C)C(=O)N[C@H](C(=O)N[C@@H](CC(C)C)C(=O)N[C@@H](CCCCN)C(N)=O)[C@@H](C)O)C(C)C)C(C)C)[C@@H](C)CC)[C@@H](C)O)[C@@H](C)CC)[C@@H](C)O)[C@@H](C)O)C(C)C)[C@@H](C)CC | Klebsiella pneumoniae |  | DSM 30104, CAMHB with 10% mouse serum |  | MIC | 0.5 µg/mL (≈ 0.119 µM)
